Results from different studies.
A part holds a random share of what one study measured. Substitutions count along the parent as printed.

Set 1
Target: Prothrombin, mature alpha-thrombin (F2, Homo sapiens, UniProt P00734)
Method: aptamer microarray, sandwich
Molecule type: DNA with 2'F-ANA
Sample: in vitro
Concentration: 200 nM
Setting: whole 15-mer aptamer, many near background
Added: Cy3 exosite-II aptamer, 400 nM
Reading: higher = stronger binding
Strand: GGTTGGTGTGGTTGG
Modification	mean fluorescence intensity
2'F-ANA at 6 7 10 14	137 a.u.
2'F-ANA at 2 3 7 8 9 10 11 14 15	269 a.u.
2'F-ANA at 1 2 3 5 10 13 14	47.9 a.u.
2'F-ANA at 1 3 5 10 13 15	48.6 a.u.
2'F-ANA at 2 3 4 6 10 12 13	243 a.u.
2'F-ANA at 1 3 7 9 12 14 15	112 a.u.
2'F-ANA at 1 4 8 13 15	117 a.u.
2'F-ANA at 1 2 7 8 12 13 14	74 a.u.
2'F-ANA at 1 2 7 8 9 10 14	61.9 a.u.
2'F-ANA at 2 5 7 10 11 12 13 14 15	111 a.u.
2'F-ANA at 2 3 5 9 12	243 a.u.
2'F-ANA at 4 5 6 8 9 11 13 14	45 a.u.
2'F-ANA at 1 5 8 9 11 13	98.1 a.u.
2'F-ANA at 1 4 5 6 9 10 11 13 14	76.9 a.u.
2'F-ANA at 1 3 4 6 7 8 9 11 12 13 15	217 a.u.
2'F-ANA at 1 2 5 8 9 10 11 13	67.2 a.u.

Set 2
Target: CCNA2, cyclin fold, Cln2 fusion (human)
Method: yeast growth competition, sequencing
Sample: yeast
Setting: strong parent motif
Relative to: not given
Reading: higher = stronger binding
Parent: CDKN1B docking peptide (human); PSACRNLFGPVDH
Variant	normalised enrichment score
PSLCRNLFGPVDH [A3L]	2.5
PSACRNLFGPGDH [V11G]	3.51
PSACRNLFGPMDH [V11M]	3.68
PSACRNLFGPVLH [D12L]	3.33
PSACRGLFGPVDH [N6G]	0.745
PSACWNLFGPVDH [R5W]	-0.0542
PSACMNLFGPVDH [R5M]	0.0819
PSACRNLYGPVDH [F8Y]	0.263
PSACRNLFYPVDH [G9Y]	1.91
PSQCRNLFGPVDH [A3Q]	0.835
PSAKRNLFGPVDH [C4K]	4.95
PSACRNLFAPVDH [G9A]	2.06
PSACRNRFGPVDH [L7R]	0.76
PSACRNLKGPVDH [F8K]	0.744
PSACPNLFGPVDH [R5P]	-0.624
PSKCRNLFGPVDH [A3K]	0.263
PSAIRNLFGPVDH [C4I]	1.36
PMACRNLFGPVDH [S2M]	2.39
PSRCRNLFGPVDH [A3R]	1.01
PSACRNLFIPVDH [G9I]	1.19
PSACRNLFGPVMH [D12M]	3.23
PSACTNLFGPVDH [R5T]	-0.407
PSACRNLFGPSDH [V11S]	4.04
PSACRNYFGPVDH [L7Y]	0.248
PSACRNLFGSVDH [P10S]	3.83

Set 3
Target: RING finger protein unkempt homolog, zinc fingers 1-6, GST-SBP tag (UNK, Homo sapiens, UniProt Q9C0B0, residues 30-357)
Method: RNA Bind-n-Seq
Molecule type: RNA
Sample: in vitro
Concentration: not given
Setting: RNA with constant flanks, human-mouse chimeric sites, ends assumed
Relative to: input RNA pool
Reading: higher = stronger binding
Shared flanks, not repeated: GGGAGUUCUACAGUCCGACGAUC … CAACAGAGGAUUGAGCAUCA
Target sequence (chain): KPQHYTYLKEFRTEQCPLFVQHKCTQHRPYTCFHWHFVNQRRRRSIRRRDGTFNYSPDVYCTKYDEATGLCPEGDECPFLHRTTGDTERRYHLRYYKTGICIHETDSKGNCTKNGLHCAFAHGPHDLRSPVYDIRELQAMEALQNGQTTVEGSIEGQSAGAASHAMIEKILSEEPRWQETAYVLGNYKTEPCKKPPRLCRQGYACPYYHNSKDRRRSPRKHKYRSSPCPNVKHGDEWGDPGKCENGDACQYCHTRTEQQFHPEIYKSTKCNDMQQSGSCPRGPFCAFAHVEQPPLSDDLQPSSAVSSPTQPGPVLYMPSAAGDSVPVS
Strand	bound/input enrichment
AGAAUCUUGGGACUGUUUUACUUAAUUGGUCAUUGAUAGCUUAACAAACAUGGAGAUAAGAUUAGAAAUCUUGACAUCAACAGGUAUCAAGCAGAAAAAACCAUGGCCCAGAGUAUCCUG	0.112 ratio
GAGUCGAGCAAACUUGAAACAAUUCGUUAUCUUGCAGCCUCAGUGUUCACUUGCUUGGCGAUAGCAUUGGGGUUUUAUAGGUUCUGGAAGGAGAACUUUAAUGCUCACUGCCGCUGCUGC	0.187 ratio
CUGGCCUGGCCCUCCCCAGGGGCCUCCUUUCGUAUAGUCACUGCUUCUGCUACGGAUACUUUCAGCUGCAACUCCCUACUGGGUGGGGCACCCAUUUGAGGCAGGGUGUUUUGGUACCCU	0.362 ratio
UACUCAACUUUCUUGCCACAUUUUGAAUUCCAAGACAUUAUUCCUCCAGAUGACUUCCUAACGAGUGAUGAAGAAGUAGAUUUGGUUUUAUUUGGAACUAUGAGAGGACAAGUUGUUGGA	0.275 ratio
AGGAGGAGGUUAAAGGGUGAAAAUGGGGUGGAAGACUGUGUCAUGGCUCUGGAGACACUGUUCAGUGUCCUGCUUUCUCUUUGCAGACUGAUGGCCCCUUACACGCCCUUUCUGACUGAG	0.0793 ratio
UUUGUAUUUAUGCUAAGCACACGUGCUGGUGGUCUGGGCAUCAAUCUUGCAACUGCUGAUGUAGUAAUUUUGUAUGACUCAGAUUGGAAUCCGCAAGUUGAUCUUCAGGCUAUGGACCGU	0.176 ratio
AGAGCCCAGGACGUUGAUGCUACAAAUCCAAAUUACGAAAUUAUGUGUAUGAUCAGAGACUUCAGAGGGAGCUUGGAUUAUAGACCACUAACAACAGCAGAUCCUAUUGAUGAACAUAGG	0.544 ratio
AGAGAUAAGACAUCCAGGAACAUGCGAGGCUCCCGGAUGAAUGGGUUUCCAAGUCCCACUCACAGCGCCCACUGUAGCUUCUACCGAACCAGAACCUUGCAGGCACUGAGUAAUGAGAAG	0.0674 ratio

Other studies, line by line
Substance	target	assay	test system	conditions	how to read	quantity	result
PhoQ, residues 284 288 289 292 302 303 TASMAF	PhoP, residues 12 14 15 18 19 STWGI (Escherichia coli, UniProt P23836)	Sort-seq, refers to: YFP reporter	E. coli	PhoQ-PhoP variant library, added: 10 µM Mg2+	relative to: high Mg2+ state, higher = stronger signaling	fold induction	12.6

Some of these lines once more (set 2):
Variant	normalised enrichment score
PSACTNLFGPVDH [R5T]	-0.407
PSQCRNLFGPVDH [A3Q]	0.835
PSACRNLFIPVDH [G9I]	1.19
